Measured values gathered from unrelated publications.
Compare with care: the assays were run in different laboratories. Numbers after ± are the reported error.
Cell line: MDCK

Cn1cc(-c2cccc(N3CCc4c(cc5n4CCCC5)C3=O)c2CO)cc(Nc2ccncn2)c1=O — apparent permeability A-B (10 µM, 3 h): 10.9 ×10⁻⁶ cm/s
O=c1[nH]cnc2c1nnn2[C@@H]1C(F)=C(CO)[C@@H](O)[C@H]1O — CC50 (MTT; 3 (unit not given)): > 100 µM
NC12CC3CC(CC(C3)C1)C2 — minimum cytotoxic concentration (cell morphology alteration): > 200 µM
CC(C)C[C@H](NC(=O)OCc1ccccc1)C(=O)N[C@@H](CC(C)C)C(=O)N[C@@H](CC1CCNC1=O)C(=O)C(=O)NC1CC1 (stereo partly shown) — CC50 (5 (unit not given)): 188 ± 3.6 µM
CC(C)(O)Cc1nc(N)[nH]c(=O)c1Br — minimum cytotoxic concentration (cell morphology alteration): > 100 µM
Sc1ncnc2nc[nH]c12 — viability (CCK-8; 100 µM, 24 h): 83.07 ± 0.74%
Cn1cc(-c2cc(F)cc(N3CCn4c(cc5c4CCCC5)C3=O)c2CO)cc(Nc2ccc(N3CCN(C4COC4)CC3)cn2)c1=O — apparent permeability A-B (10 µM, 3 h): 11.5 ×10⁻⁶ cm/s
COc1ccc(/C=C/c2nc(N)[nH]c(=O)c2Br)cc1OC — minimum cytotoxic concentration (cell morphology alteration): 100 µM
O=c1[nH]c(=O)n([C@H]2C[C@H](O)[C@@H](CO)O2)cc1F — viability (CCK-8; 100 µM, 24 h): 94 ± 0.69%
Cn1cc(-c2cccc(N3CCn4c(cc5c4CC(C)(C)C5)C3=O)c2CO)cc(Nc2ccncn2)c1=O — apparent permeability A-B (10 µM, 3 h): 24.3 ×10⁻⁶ cm/s
Nc1nc(CC(O)c2ccc(Cl)cc2)c(Br)c(=O)[nH]1 (stereo not shown) — minimum cytotoxic concentration (cell morphology alteration): > 100 µM
Cc1ncc(OC[C@@]2(c3cccc(F)c3)C[C@H]2C(=O)Nc2ccc(F)cn2)c(C)n1 — mass recovery (1 µM, 90 min, pH 7.4 apical, 7.4 basolateral, apical to basolateral): 94 ± 8%
CCOC(=O)C1=C[C@@H](OC(CC)CC)[C@H](NC(C)=O)[C@@H](N)C1 — CC50 (MTT; 3 (unit not given)): > 100 µM
Nc1ccn([C@@H]2O[C@H](CO)[C@@H](O)C2(F)F)c(=O)n1 — viability (CCK-8; 100 µM, 24 h): 95.78 ± 0.81%
NC(=O)c1ncn([C@@H]2O[C@H](CO)[C@@H](O)[C@H]2O)n1 — minimum cytotoxic concentration (cell morphology alteration): > 100 µM
NC(=O)c1nnn([C@@H]2C(F)=C(CO)[C@@H](O)[C@H]2O)c1N — CC50 (MTT; 3 (unit not given)): > 100 µM
